Published values of several laboratories.
Numbered parts are unrelated; each lists some results of a single study.

Sample 1 — technique: universal PBM; form: double-stranded DNA, one strand shown; sample: in vitro; concentration: 600 nM; reading: higher = stronger binding
Target: Sal-like protein 4, full length isoform A (SALL4, Homo sapiens, UniProt Q9UJQ4, residues 1-1053)
UniProt Q9UJQ4, sequence (whole entry, looked up): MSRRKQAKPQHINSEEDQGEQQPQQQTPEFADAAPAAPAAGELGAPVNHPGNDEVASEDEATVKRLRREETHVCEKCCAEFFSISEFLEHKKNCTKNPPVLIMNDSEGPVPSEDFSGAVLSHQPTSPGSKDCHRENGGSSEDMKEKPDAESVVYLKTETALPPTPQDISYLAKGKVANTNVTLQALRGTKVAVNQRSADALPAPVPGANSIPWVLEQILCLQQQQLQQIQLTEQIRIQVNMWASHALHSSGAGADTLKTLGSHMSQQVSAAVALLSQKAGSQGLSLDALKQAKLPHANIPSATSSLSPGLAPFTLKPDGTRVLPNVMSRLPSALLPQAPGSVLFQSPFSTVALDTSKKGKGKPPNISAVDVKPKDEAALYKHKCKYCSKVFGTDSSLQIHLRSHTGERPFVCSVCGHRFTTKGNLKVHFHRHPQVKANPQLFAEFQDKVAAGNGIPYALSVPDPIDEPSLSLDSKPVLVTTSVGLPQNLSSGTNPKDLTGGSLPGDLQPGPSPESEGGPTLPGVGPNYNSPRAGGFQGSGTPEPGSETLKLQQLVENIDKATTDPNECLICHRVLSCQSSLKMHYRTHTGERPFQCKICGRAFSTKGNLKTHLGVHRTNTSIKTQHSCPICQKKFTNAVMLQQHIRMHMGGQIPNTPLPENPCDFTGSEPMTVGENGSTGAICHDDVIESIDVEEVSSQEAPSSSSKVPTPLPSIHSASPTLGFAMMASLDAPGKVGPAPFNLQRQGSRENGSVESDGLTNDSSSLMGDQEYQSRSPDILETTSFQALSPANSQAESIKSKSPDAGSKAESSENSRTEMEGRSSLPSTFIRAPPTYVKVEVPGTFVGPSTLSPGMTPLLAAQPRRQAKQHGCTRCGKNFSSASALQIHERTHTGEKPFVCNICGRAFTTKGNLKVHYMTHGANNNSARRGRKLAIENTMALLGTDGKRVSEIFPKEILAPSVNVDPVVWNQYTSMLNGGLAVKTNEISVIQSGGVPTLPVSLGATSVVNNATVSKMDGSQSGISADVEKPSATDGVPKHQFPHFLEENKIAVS
Notes: 8-mer, flanks averaged, mean of replicates
Oligonucleotide	E-score
AGCTGTTC	-0.196
ACACCAGT	-0.18
ATGGGGAA	0.0313

Sample 2 — technique: protein binding microarray; form: double-stranded DNA, one strand shown; sample: in vitro; concentration: not given; reference: not given; reading: higher = stronger binding
Target: Histone acetyltransferase KAT6A, winged helix 1, GST fusion (KAT6A, Homo sapiens, UniProt Q92794, residues 1-85)
Notes: 8-mer, flanks averaged, mean of 2 arrays, mostly near background
Construct (chain): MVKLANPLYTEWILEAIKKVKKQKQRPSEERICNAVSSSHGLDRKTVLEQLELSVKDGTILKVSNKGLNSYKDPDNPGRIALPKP
Oligonucleotide	E-score
AGACTCAG	-0.186
GATATACC	0.0237
CTTGCACA	-0.184

Single results of other studies
F2 mature alpha-thrombin: Prothrombin, mature alpha-thrombin (F2, Homo sapiens, UniProt P00734)
Substance	target	assay	system	setting	scale	endpoint	value
GGTTGGTGTGGTTGG (2'F-ANA at 2 3 9 10 11 13 14 15)	F2 mature alpha-thrombin	aptamer microarray, sandwich	DNA with 2'F-ANA, in vitro	200 nM, whole 15-mer aptamer, many near background, with: Cy3 exosite-II aptamer, 400 nM	higher = stronger binding	mean fluorescence intensity	220 a.u.
PhoQ, residues 284 288 289 292 302 303 SLANKL	PhoP, residues 12 14 15 18 19 SPWRL (Escherichia coli, UniProt P23836)	Sort-seq, item: YFP reporter	E. coli	PhoQ-PhoP variant library, with: 10 µM Mg2+	reference: high Mg2+ state, higher = stronger signaling	fold induction	2.1
GGTTGGTGTGGTTGG (2'F-ANA at 1 10 13 14 15)	F2 mature alpha-thrombin	aptamer microarray, sandwich	DNA with 2'F-ANA, in vitro	200 nM, whole 15-mer aptamer, many near background, with: Cy3 exosite-II aptamer, 400 nM	higher = stronger binding	mean fluorescence intensity	63.6 a.u.

Repeated from above (single results of other studies):
Substance	target	assay	system	setting	scale	endpoint	value
PhoQ, residues 284 288 289 292 302 303 SLANKL	PhoP, residues 12 14 15 18 19 SPWRL (Escherichia coli, UniProt P23836)	Sort-seq, item: YFP reporter	E. coli	PhoQ-PhoP variant library, with: 10 µM Mg2+	reference: high Mg2+ state, higher = stronger signaling	fold induction	2.1
